Results from different studies.
Every numbered part comes from another study and shows a few of its results, in no order. Changes are numbered by the printed parent chain.

Block 1
Target: ABI1, truncated, D143A, DHFR fusion (Arabidopsis thaliana)
Method: DHFR PCA, deep sequencing
Sample: yeast
Setting: methotrexate growth selection, single substitutions
Together with: (+)-ABA 0.11 µM
Relative to: wild-type fitted maximum
Direction: higher = stronger binding
Parent: PYL1, truncated, DHFR fusion (Arabidopsis thaliana); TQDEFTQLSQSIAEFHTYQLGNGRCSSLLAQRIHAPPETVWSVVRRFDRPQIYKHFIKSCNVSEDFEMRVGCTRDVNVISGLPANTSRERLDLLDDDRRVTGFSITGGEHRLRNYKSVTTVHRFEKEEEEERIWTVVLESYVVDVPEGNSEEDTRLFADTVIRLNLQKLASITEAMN; partner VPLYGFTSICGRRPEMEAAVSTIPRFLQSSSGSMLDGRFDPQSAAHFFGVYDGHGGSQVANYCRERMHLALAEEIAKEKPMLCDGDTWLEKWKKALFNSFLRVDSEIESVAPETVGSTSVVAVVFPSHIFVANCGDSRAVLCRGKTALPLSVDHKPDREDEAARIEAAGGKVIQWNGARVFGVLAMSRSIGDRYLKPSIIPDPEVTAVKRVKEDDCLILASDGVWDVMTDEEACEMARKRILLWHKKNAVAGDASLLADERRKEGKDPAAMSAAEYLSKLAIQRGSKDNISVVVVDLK
Change	relative binding score
A35L	-0.0668%
L91Y	-3.87%
L82F	69.9%
L164E	4.31%
A30L	20%
A35G	-0.526%
V62Y	-4.29%
L112V	-3.25%
R24T	19.7%
L28K	-4.95%
G102D	-3.19%
V161K	4.08%
D3W	27.2%
H122W	-3.29%
P83M	-0.393%
N85D	19%
G108H	1.82%
S140W	-3.06%
P37C	3.11%
F103Q	-4.63%
R132V	30.6%

Block 2
Target: Ras GTPase-activating protein-binding protein 1, full length (G3BP1, Homo sapiens, UniProt Q13283)
Sequence of UniProt Q13283 (whole entry, looked up): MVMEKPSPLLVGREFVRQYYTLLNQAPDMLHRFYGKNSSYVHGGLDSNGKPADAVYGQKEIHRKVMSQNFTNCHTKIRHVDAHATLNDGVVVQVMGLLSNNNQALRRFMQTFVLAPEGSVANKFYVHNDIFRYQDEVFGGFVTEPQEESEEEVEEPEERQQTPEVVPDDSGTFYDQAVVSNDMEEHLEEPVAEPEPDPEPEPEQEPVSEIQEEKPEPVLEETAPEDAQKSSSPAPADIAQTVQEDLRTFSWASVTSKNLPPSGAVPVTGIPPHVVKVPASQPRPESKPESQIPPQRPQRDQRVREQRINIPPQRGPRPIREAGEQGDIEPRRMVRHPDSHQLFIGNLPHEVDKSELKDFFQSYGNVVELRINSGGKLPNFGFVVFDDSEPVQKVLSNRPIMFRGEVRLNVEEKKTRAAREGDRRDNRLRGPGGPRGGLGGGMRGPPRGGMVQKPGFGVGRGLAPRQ
Method: RNA Bind-n-Seq
Form: RNA
Sample: in vitro
Concentration: 200 nM
Setting: whole 134-nt RNA, ends assumed
Together with: 150 mM KCl
Relative to: input library
Direction: higher = stronger binding
Strand	log2 enrichment
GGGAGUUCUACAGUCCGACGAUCUGGCCCUGGUGGCAUGCGGGGAGGAAGAGGUGGCCUCAUGGAUCGUGGUGGUUCCGGUGGAAUGUUCAGAGGUGGCCGUGGUGGAGACAGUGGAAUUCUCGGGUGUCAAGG	0.249
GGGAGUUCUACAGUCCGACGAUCUGGGAGGUGGAUGUUGUUUAUUUUUUUAGCUCAUUUCCAGGGGUGGGAAUUUUUUUUUAAUAUGUGUCAUGAAUAAAGUUGUUUUUGAAAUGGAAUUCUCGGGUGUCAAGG	0.1
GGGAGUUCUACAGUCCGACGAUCUGGCCCUGGUGGCAUGCGGGGAGGAAGAGGUGGCCUCAUGGAUCGUGGAGGUCCCGGUGGAAUGUUCAGAGGUGGCCGUGGUGGAGACAGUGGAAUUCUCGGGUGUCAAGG	0.811
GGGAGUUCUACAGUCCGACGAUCCACAGACAACACGCACCCACACAGACACAGAGGGAAGGGGUUGGGAUGGGGACAGGGUGCACAGCAGGGCGGGGUAGGACCCAAGCCCCUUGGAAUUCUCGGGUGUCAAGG	1.92
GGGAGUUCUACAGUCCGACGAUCUGGCCCUGGUGGCAUGCGGGGAGGAAGAGGUGGCCUCAUGGAUCGUGGUGGUCCCGGUGGAAUGUUCAGAGGUGGCCGUGGUGGACACAGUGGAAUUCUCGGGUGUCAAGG	-0.0902
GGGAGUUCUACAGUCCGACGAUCCAAGUCCUGUGCUACACAUCGUAUGUACCGAAUCGGUUUUUUUGGUGGUUUUUGGAAAGUAUUAUGUUACGCCGUUCGGAUCUGCACUUCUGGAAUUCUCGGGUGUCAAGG	-0.903
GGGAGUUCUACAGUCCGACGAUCCAAGUCCUGUGCUACACAUCGUAUGUACCGAAUCGGGUGGGUGGGAAAAAAAGGGAAAGUAUUAUGUUACGCCGUUCGGAUCUGCACUUCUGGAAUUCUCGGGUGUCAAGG	0.179
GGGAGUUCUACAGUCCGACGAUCACCAUGCAGGUGGGCAUCUUUGGGAAGUGGGGCAAGGGGGGGAUAAGGAGGGGGGUAACACUUUGGGAACAGGUGGUCCCAGGUCGUUUCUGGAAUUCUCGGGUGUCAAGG	0.756
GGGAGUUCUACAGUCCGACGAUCCCUGUGCUACACAUCGUAUGUACCGAAUCGGGGUUUUUUGGGUUUUUUGGGGUUUUUUGGGAAAGUAUUAUGUUACGCCGUUCGGAUCUGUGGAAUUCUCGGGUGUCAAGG	-0.43

Block 3
Target: Sal-like protein 4, full length isoform A (SALL4, Homo sapiens, UniProt Q9UJQ4, residues 1-1053)
Sequence of UniProt Q9UJQ4 (whole entry, looked up): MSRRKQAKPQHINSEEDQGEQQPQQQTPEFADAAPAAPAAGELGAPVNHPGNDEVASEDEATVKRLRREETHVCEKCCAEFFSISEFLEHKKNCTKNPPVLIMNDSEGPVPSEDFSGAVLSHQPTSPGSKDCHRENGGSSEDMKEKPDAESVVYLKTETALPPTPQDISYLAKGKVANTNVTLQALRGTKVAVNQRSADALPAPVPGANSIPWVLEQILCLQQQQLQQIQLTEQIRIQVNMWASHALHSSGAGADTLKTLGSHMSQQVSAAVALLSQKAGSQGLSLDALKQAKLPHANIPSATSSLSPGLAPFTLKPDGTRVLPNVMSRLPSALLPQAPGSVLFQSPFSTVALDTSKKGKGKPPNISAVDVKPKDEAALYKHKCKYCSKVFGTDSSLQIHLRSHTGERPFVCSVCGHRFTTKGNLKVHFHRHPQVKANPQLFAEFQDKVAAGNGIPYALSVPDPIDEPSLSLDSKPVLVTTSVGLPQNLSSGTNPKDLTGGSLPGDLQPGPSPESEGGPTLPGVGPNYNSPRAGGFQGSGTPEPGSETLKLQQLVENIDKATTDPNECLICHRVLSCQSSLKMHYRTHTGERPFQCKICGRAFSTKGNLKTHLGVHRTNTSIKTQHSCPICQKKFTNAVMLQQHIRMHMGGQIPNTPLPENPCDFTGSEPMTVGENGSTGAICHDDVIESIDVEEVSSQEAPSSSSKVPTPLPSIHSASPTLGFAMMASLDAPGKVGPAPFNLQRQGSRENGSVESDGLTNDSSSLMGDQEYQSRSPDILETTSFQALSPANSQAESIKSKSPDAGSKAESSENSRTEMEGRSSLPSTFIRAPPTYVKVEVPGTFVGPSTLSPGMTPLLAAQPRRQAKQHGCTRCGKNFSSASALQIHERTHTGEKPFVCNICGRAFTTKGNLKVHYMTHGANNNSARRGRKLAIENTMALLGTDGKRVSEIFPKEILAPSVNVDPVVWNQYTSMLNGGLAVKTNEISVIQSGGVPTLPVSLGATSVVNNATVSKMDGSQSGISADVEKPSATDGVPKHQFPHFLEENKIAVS
Method: universal PBM
Form: double-stranded DNA, one strand shown
Sample: in vitro
Concentration: 600 nM
Setting: 8-mer, flanks averaged, mean of replicates
Direction: higher = stronger binding
Strand	E-score
CAATGACA	0.129
CAGCTAAG	-0.192
CACTCATA	0.221
AAGATCGT	-0.0653
AGGTGGCG	-0.26
CTTAATCA	0.216
CATAGCCA	-0.011
ATGCTGCA	-0.0268
AATTGACA	0.177
ATGCTTAA	0.271
ACATCTGG	0.00419
AAACCTGC	-0.128
CACTGGGG	-0.363
CACATGAA	0.136
AGCCGGGA	-0.236
ATAAGATC	0.0824
AAGAAGCA	0.0402
CTCGCTAA	0.0222
AGGTCACC	-0.273
CTCGGCTA	-0.208
GTACGGGA	-0.0826
CTTTGTGA	0.108
CACTGGAC	-0.119
CTTGACCA	0.00615
CGTTATAA	0.197

Block 4
Target: CCNE2, cyclin fold, Cln2 fusion (human)
Method: yeast growth competition, sequencing
Sample: yeast
Setting: strong parent motif
Relative to: not given
Direction: higher = stronger binding
Parent: GMNC docking peptide (human); KNAKRNLSSEFAN; partner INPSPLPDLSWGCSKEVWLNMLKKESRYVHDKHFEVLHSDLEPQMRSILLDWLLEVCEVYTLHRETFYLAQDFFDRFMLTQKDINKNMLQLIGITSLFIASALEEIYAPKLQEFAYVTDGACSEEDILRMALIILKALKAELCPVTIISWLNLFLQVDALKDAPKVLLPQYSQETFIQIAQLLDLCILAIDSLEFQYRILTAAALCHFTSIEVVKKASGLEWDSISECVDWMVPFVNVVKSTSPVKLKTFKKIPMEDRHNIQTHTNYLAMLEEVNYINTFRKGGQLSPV
Change	normalised enrichment score
E10A	0.828
A12N	1.51
L7F	0.559
R5N	0.475
K4Q	0.391
N2R	1.59
K4V	2.26
L7C	0.0775
S8N	1.7
F11G	0.256
A3R	-0.2
A12V	1.15
L7S	0.192
N2Y	0.846
R5T	0.172
R5L	-0.000301
E10L	0.589
N2I	0.834
A12W	1.16
E10G	0.514
R5C	0.153
N6F	0.388
S9Y	1.95
F11N	-0.0927
L7G	0.652

Excerpt of the above (block 3):
Strand	E-score
AATTGACA	0.177
CTTAATCA	0.216
CACATGAA	0.136
CAATGACA	0.129
CACTGGAC	-0.119
AGGTCACC	-0.273
